Published values gathered from unrelated publications.
Lines come from different studies, so protocols differ. ± marks the error that the study gave.
B1: enzyme (Bacillus subtilis, UniProt P14949); chain AIVKATDQSFSAETSEGVVLADFWAPWCGPCKMIAPVLEELDQEMGDKLKIVKIDVDENQETAGKYGVMSIPTLLVLKDGEVVETSVGFKPKEALQELVNKHL
B2: ST3GAL1 K315T (Sus scrofa, UniProt Q02745); chain ELSENFKKLMKYPYRPCTCTRCIEEQRVSAWFDERFNRSMQPLLTAKNAHLEEDTYKWWLRLQREKQPNNLNDTIRELFQVVPGNVDPLLEKRLVSCRRCAVVGNSGNLKESYYGPQIDSHDFVLRMNKAPTEGFEADVGSKTTHHFVYPESFRELAQEVSMILVPFKTTDLEWVISATTTGRISHTYVPVPAKIKVKKEKILIYHPAFIKYVFDRWLQGHGRYPSTGILSVIFSLHICDEVDLYGFGADSKGNWHHYWENNPSAGAFRTTGVHDGDFESNVTTILASINKIRIFKGR
B3: enzyme (Staphylococcus epidermidis, UniProt Q9FD73); chain MVKSGKARAHTNIALIKYWGKADETYIIPMNNSLSVTLDRFYTETKVTFDPDFTEDCLILNGNEVNAKEKEKIQNYMNIVRDLAGNRLHARIESENYVPTAAGLASSASAYAALAAACNEALSLNLSDTDLSRLARRGSGSASRSIFGGFAEWEKGHDDLTSYAHGINSNGWEKDLSMIFVVINNQSKKVSSRSGMSLTRDTSRFYQYWLDHVDEDLNEAKEAVKNQDFQRLGEVIEANGLRMHATNLGAQPPFTYLVQESYDAMAIVEQCRKANLPCYFTMDAGPNVKVLVEKKNKQAVMEQFLKVFDESKIIASDIISSGVEIIK
B4: acsA (Pseudomonas chlororaphis, UniProt Q5CD72); chain MRDYEHVVESFDYLQSATQDLHGELTALNACVECCDRHAHGEAVALYCEAQDGHAERYRFRDLQRQAARFGNFLREQGVKPGDRVAGLMPRTVELLIAILGTWRIGAVYQPLFTAFGPKAIEQRLNCSNARWIVTDPHNRPKLDDVTDCPSIVVTGGAPQNPADHHFWSALNRQADDCAPVLLDASAPFLLMCTSGTTGPAKPLEVPLSAILAFKGYMRDAIDLRADDRFWNLADPGWAYGLYYAVTGPLACGYATLFYDGPFTVESTRHIIAKYAINNLAGSPTAYRFLIAAGAEFADAVRGRLRAVSSAGEPLNPQVVRWFAEQLGVVIHDHYGQTEIGMVLCNHHGLRHPVREGSAGYAVPGYRIVVLDKAHRELPAGQPGVLAVDRERSPLCWFDGYLGMPTQAFAGRYYLSGDIVELNDDGSISFVGRNDDLITTSGYRVGPFDVESALIEHPAVVEAAVIGKPDPQRTELIKAFVVLNTPYLPSPELAEELRLHVRQRLAAHAYPREMEFVDHLPKTPSGKLQRFILRNQEIAKQQALG
B5: enzyme Y243A (Arabidopsis thaliana, UniProt Q9LJK1); chain EKCQEWLERVDSVTYSRDFTKDPIFISGSNKDFKSCSVDCVMGFTSDKKPDAAFGLSHQPGTLSIIRSMESAQYYQENNLAQARRKGYDIVMTTSLSSDVPVGYFSWAEYDIMAPVQPKTEKALAAAFISNCAARNFRLQALEALMKTNVKIDSAGGCHRNRDGSVEKVEALKHYKFSLAFENTNEEDYVTEKFFQSLVAGSVPVVVGAPNIEEFAPSPDSFLHIKQMDDVKAVAKKMKYLADNPDAYNQTLRWKHEGPSDSFKALIDMAAVHSSCRLCIFVATRIREQEEKSPEFKRRPCKCTRGSETVYHLYVRERGRFDMESIFLKDGNLTLEALESAVLAKFMSLRYEPIWKKERPASLRGDGKLRVHGIYPIGLTQRQALYNFKFEGNSSLSTHIQRNPCPKFEVVFV
UniProt P0AE52, sequence (whole entry, looked up): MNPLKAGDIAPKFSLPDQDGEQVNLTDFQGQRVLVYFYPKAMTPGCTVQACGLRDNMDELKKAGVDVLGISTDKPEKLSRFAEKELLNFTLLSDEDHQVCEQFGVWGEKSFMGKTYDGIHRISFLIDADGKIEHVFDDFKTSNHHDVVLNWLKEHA
UniProt Q944I4, sequence (whole entry, looked up): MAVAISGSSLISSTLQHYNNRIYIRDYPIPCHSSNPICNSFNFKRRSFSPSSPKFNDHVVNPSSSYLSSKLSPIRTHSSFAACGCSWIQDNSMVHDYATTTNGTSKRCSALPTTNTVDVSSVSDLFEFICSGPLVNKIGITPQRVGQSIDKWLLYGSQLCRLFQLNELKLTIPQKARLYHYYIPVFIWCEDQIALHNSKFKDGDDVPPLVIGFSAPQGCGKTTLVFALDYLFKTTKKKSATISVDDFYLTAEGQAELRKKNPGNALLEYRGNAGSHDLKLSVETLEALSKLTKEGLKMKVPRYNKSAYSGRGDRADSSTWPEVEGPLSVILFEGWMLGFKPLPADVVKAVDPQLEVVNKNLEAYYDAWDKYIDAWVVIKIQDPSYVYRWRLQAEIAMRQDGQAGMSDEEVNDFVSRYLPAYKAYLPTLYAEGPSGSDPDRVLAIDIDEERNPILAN
UniProt Q2GG44, sequence (whole entry, looked up): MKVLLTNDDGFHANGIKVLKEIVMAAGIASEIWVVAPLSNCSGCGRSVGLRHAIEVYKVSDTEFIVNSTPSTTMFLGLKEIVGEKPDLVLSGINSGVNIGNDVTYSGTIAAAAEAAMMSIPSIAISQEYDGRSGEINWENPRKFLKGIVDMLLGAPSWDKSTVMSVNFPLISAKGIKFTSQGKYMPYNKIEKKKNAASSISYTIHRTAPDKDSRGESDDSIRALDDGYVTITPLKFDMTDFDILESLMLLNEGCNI

Substance = GLFQWIYRA; tested on = Jurkat T cells expressing 1G4 TCR; assay = NFAT-eGFP reporter, flow cytometry; system = peptide; conditions = concentration not given, HLA-A*02:01 NY-ESO system; endpoint = reporter activation; result = 0.28%
Substance = GGGAGAACUUCGACCAGAAGCACCUCUCCCAACAGCGGAACUGUUUCUCGGUCCAAAAGGUAUGUGCGCAUACAUGGAUCCUC (ssRNA; 2'-fluoro pyrimidines); tested on = integrin alphaV/beta3 31-992/27-718 (Homo sapiens); assay = SPR; system = RNA; conditions = together with: MnCl2 1 mM; scale = higher = more binding; endpoint = relative binding; result = 24.8 RU
Substance = B1 (enzyme); tested on = N[C@@H](CSSC[C@H](N)C(=O)N[C@H]1[C@@H](O[C@@H](CC(=O)O)C(=O)O)O[C@H](CO)[C@@H](O)[C@@H]1O)C(=O)N[C@H]1[C@@H](O[C@@H](CC(=O)O)C(=O)O)O[C@H](CO)[C@@H](O)[C@@H]1O; assay = steady-state kinetics; conditions = pH 8; endpoint = Km; result = 34 µM
Substance = enzyme (Ehrlichia chaffeensis, UniProt Q2GG44); tested on = Nc1ncnc2c1ncn2[C@@H]1O[C@H](COP(=O)(O)O)[C@@H](O)[C@H]1O; assay = steady-state kinetics; conditions = pH 6.8, 37 °C, together with: Mg2+ 1 mM; endpoint = Km; result = 400 µM
Substance = HNL C81L/E79H/G176S/H103V/K236M/N104A/S105A/T11G/V106F (Hevea brasiliensis); tested on = CC(=O)Oc1ccc([N+](=O)[O-])cc1; assay = steady-state kinetics; conditions = pH 7.2, 22 °C; endpoint = Km; result = 350 µM
Substance = STVQLIMQL; tested on = HLA class I histocompatibility antigen, A alpha chain, allele A*01:01 (Homo sapiens, UniProt P04439); assay = conformational ELISA; system = peptide; conditions = concentration not given; scale = baseline: positive control peptide, direction not given; endpoint = binding score; result = 0.5%
Substance = AAACAAACAAAC (dsDNA); tested on = Fibroin-modulator-binding protein-1 99-193 (Bombyx mori, UniProt Q5FBS0); assay = ITC; system = double-stranded DNA, one strand shown; endpoint = Kd; result = 3.07 ± 0.272 µM
Substance = B2 (ST3GAL1 K315T); tested on = CC(=O)N[C@H]1[C@H]([C@H](O)[C@H](O)CO)O[C@](OP(=O)(O)OC[C@H]2O[C@@H](n3ccc(N)nc3=O)[C@H](O)[C@@H]2O)(C(=O)O)C[C@@H]1O; assay = steady-state kinetics; endpoint = Km; result = 52.3 µM
Substance = GLLQWVSMV; tested on = Jurkat T cells expressing 1G4 TCR; assay = NFAT-eGFP reporter, flow cytometry; system = peptide; conditions = concentration not given, HLA-A*02:01 NY-ESO system; endpoint = reporter activation; result = 0.24%
Substance = B3 (enzyme); tested on = Nc1ncnc2c1ncn2[C@@H]1O[C@H](COP(=O)(O)OP(=O)(O)OP(=O)(O)O)[C@@H](O)[C@H]1O; assay = steady-state kinetics; conditions = pH 7, 30 °C; endpoint = Km; result = 26.7 µM
Substance = enzyme (Arabidopsis thaliana, UniProt Q944I4); tested on = O=C(O)[C@H](O)CO; assay = steady-state kinetics; conditions = pH 7.8, 30 °C; endpoint = Km; result = 210 µM
Substance = B4 (acsA); tested on = CC(=O)O; assay = steady-state kinetics; conditions = pH 7; endpoint = Km; result = 130 µM
Substance = enzyme (Thermothielavioides terrestris, UniProt G2R650); tested on = C=Cc1ccc(O)c(OC)c1; assay = steady-state kinetics; conditions = pH 8, 45 °C; endpoint = Km; result = 1620 µM
Substance = bcp (Escherichia coli, UniProt P0AE52); tested on = CC(C)(OO)c1ccccc1; assay = steady-state kinetics; conditions = pH 7, 25 °C, apparent; endpoint = Km; result = 99.5 µM
Substance = B5 (enzyme Y243A); tested on = C[C@@H]1O[C@H](OP(=O)(O)OP(=O)(O)OC[C@H]2O[C@@H](n3cnc4c(=O)[nH]c(N)nc43)[C@H](O)[C@@H]2O)[C@@H](O)[C@H](O)[C@@H]1O; assay = steady-state kinetics; conditions = pH 6.5, 30 °C; endpoint = Km; result = 240 µM

Repeated from above:
Substance = GGGAGAACUUCGACCAGAAGCACCUCUCCCAACAGCGGAACUGUUUCUCGGUCCAAAAGGUAUGUGCGCAUACAUGGAUCCUC (ssRNA; 2'-fluoro pyrimidines); tested on = integrin alphaV/beta3 31-992/27-718 (Homo sapiens); assay = SPR; system = RNA; conditions = together with: MnCl2 1 mM; scale = higher = more binding; endpoint = relative binding; result = 24.8 RU
